Literature values as cited in several papers.
Each line is one published result; not all experiments were run side by side. ± gives the spread as reported. Square brackets hold non-standard residues; d marks the D form. Ends that are not written are not given here.
H2-K1 27: H-2 class I histocompatibility antigen, K-B alpha chain, 27 (H2-K1, Mus musculus, UniProt P01901)
Chain of UniProt P20789 (whole entry, looked up): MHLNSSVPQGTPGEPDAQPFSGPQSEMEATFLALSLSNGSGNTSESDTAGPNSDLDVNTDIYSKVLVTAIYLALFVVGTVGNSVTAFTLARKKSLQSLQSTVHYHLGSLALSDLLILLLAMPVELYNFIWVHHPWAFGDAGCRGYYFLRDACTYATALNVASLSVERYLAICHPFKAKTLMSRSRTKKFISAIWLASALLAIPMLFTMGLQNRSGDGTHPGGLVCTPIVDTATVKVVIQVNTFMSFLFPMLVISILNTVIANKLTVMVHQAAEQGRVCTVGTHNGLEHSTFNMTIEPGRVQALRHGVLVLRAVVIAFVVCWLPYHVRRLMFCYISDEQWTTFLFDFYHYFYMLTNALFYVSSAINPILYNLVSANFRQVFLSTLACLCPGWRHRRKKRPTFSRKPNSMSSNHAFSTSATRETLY
Chain of UniProt O43603 (whole entry, looked up): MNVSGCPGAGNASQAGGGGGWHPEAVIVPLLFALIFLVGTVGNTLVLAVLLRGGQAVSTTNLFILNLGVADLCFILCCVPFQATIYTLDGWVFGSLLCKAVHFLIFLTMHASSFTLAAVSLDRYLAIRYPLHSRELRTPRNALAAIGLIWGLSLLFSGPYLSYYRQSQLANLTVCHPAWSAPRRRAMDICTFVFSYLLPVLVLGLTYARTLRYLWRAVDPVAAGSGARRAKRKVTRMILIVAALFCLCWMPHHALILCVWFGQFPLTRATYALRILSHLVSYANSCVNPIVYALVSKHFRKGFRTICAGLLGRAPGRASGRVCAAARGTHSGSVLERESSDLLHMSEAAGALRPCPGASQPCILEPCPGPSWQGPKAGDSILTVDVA

| Molecule | tested on | assay | system | setting | scale | quantity | result |
| --- | --- | --- | --- | --- | --- | --- | --- |
| L-Tyr-D-Arg |  | analgesia, tail-pinch test | mouse | intracisternal |  | ED50 | 6.2 nmol |
| CN1[C@@H](CCc2ccccc2)CCC[C@H]1CCc1ccccc1 |  | dopamine release, inhibitor | striatal slices | added: methamphetamine |  | IC50 | 650 nM |
| C=CC=O |  | dopamine vesicular uptake | striatal synaptic vesicles | added: [3H]dopamine |  | IC50 | 213000 nM |
| CN1[C@@H](CC(=O)c2ccccc2)CCC[C@H]1C[C@H](O)c1ccccc1 |  | dopamine release, inhibitor | striatal slices | added: methamphetamine |  | IC50 | 420 nM |
| CC1=CC(=O)[C@@H](O)[C@]2(C)[C@H]3[C@@H](O)[C@H](O)[C@@]4(C)OC[C@@]35[C@@H](C[C@@H]12)OC(=O)[C@H](O)[C@]54O |  |  | streptozotocin diabetic rats | dose not given | relative to: untreated diabetic rats | blood glucose lowering | 88 ± 2.91% |
| YTVKYPNL (influenza nucleoprotein 205-212; sequence looked up) | H2-K1 27 | binding, competitor | peptide | purified MHC class I K allele, added: radiolabelled standard peptide |  | IC50 | 0.55 nM |
| Nc1nc2c(ncn2COCCO)c(=O)[nH]1 |  | three-week survival | mouse, intranasal HSV-2 infection | oral |  | ED50 | 16 mg/kg |
| COCCOCCOCCOc1ccc(C2=N[C@@](C)(C(=O)O)CS2)c(O)c1 |  |  | bile duct-cannulated rats | subcutaneous, 300 µmol/kg |  | iron clearing efficiency | 8.7 ± 2.6% |
| [Sar]WTLNSAGYLLGPKKKK-NH2 (N-terminus assumed; SMILES CNCC(=O)N[C@@H](Cc1c[nH]c2ccccc12)C(=O)N[C@H](C(=O)N[C@@H](CC(C)C)C(=O)N[C@@H](CC(N)=O)C(=O)N[C@@H](CO)C(=O)N[C@@H](C)C(=O)NCC(=O)N[C@@H](Cc1ccc(O)cc1)C(=O)N[C@@H](CC(C)C)C(=O)N[C@@H](CC(C)C)C(=O)NCC(=O)N1CCC[C@H]1C(=O)N[C@@H](CCCCN)C(=O)N[C@@H](CCCCN)C(=O)N[C@@H](CCCCN)C(=O)N[C@@H](CCCCN)C(N)=O)[C@@H](C)O; N-terminal sarcosine; Sar = CNCC(=O)O) | GALR2 (Homo sapiens, UniProt O43603) |  |  | added: europium-labeled galanin |  | Ki | 24 ± 9.9 nM |
| O=c1c2cc(O)c(O)cc2oc2cc(O)c([C@@H]3O[C@H](CO)[C@@H](O)[C@H](O)[C@H]3O)c(O)c12 |  |  | rat, alloxan-induced diabetes | dose not given, 21 days | relative to: untreated diabetic rats | fasting blood glucose | decreased |
| neurotensin | Ntsr1 (Rattus norvegicus, UniProt P20789) | agonist | CHO cells expressing Ntsr1 |  |  | EC50 | 3.31 nM |
| C[C@]1(c2nc3c(C(N)=O)cccc3[nH]2)CCCN1 |  |  | human germline BRCA-mutated cancer | dose not given, phase I monotherapy, all doses |  | overall response rate | 29% |
| CCCCCCCCCCCCCCCCOP(=O)([O-])OCC[N+](C)(C)C |  |  | human visceral leishmaniasis India | concentration not given |  | cure rate at 6 months | ~90% |
| C=C(C)[C@@H]1CCC(C)=C[C@H]1c1c(O)cc(CCCCC)cc1O |  |  | mouse | oral, dose not given |  | inhibition of acetic acid writhing | inactive |
| CC(=O)c1c(C)c2cnc(Nc3ccc(N4CCNCC4)cn3)nc2n(C2CCCC2)c1=O |  |  | human HR+/HER2− metastatic breast cancer | dose not given, phase III trial, added: fulvestrant |  | progression-free survival | 9.2 months |
| C[C@@]12CC[C@H](O)C[C@H]1CC[C@@H]1[C@@H]2CC[C@]2(C)[C@H]1CC[C@]21CO1 (single isomer, unassigned) |  | loss of swimming reflex | tadpoles |  |  | EC50 | 2710 ± 10 nM |
| tirzepatide |  |  | type 2 diabetes patients | 5 mg weekly, 40 weeks |  | HbA1c change from baseline | -2.01% |
| Cc1nc(N(C)C(=O)Cc2ccc(-c3ccccn3)cc2)sc1S(N)(=O)=O |  | three-week survival | mouse, intranasal HSV-1 infection | oral |  | ED50 | 0.5 mg/kg |
| tirzepatide |  |  | human adults with obesity | dose not given, week 0 to 88 |  | body weight reduction | 25.3% |
| ITIQYNLT (sequence looked up) | H2-K1 27 | binding, competitor | peptide | purified MHC class I K allele, added: radiolabelled standard peptide |  | IC50 | 352 nM |
| C#C[C@]1(CO)O[C@@H](n2cnc3c(N)nc(F)nc32)C[C@@H]1O |  |  | human, cART-naive HIV-1 infected | 10 mg single dose, up to day 10 |  | viral load reduction | 1.78 log10 copies/mL |
